Measurements from different studies.
Each numbered part is a random draw from the data of one study; scales do not carry over between parts.

Study 1
Target: RING finger protein unkempt homolog, zinc fingers 1-6, GST-SBP tag (UNK, Homo sapiens, UniProt Q9C0B0, residues 30-357)
Technique: RNA Bind-n-Seq
Molecule type: RNA
Matrix: in vitro
Tested at: not given
Setting: RNA with constant flanks, human-mouse chimeric sites, ends assumed
Baseline: input RNA pool
Direction: higher = stronger binding
Endpoint: bound/input enrichment
Constant ends, left off below: GGGAGUUCUACAGUCCGACGAUC … CAACAGAGGAUUGAGCAUCA
Construct (chain): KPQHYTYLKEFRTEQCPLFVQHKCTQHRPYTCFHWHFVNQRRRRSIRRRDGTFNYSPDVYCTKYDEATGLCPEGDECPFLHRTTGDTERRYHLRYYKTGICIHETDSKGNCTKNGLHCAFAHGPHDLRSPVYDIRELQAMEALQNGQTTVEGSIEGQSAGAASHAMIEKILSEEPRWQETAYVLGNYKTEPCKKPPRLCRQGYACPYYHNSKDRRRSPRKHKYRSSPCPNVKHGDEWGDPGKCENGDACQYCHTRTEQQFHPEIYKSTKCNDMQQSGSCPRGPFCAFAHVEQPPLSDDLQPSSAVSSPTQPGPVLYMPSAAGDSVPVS
Oligonucleotide = GACUUGGGACCGUCCUGGCUAGUGCAAAAUAGCGGCAGUGGAGGCUCGAGAGGAAAGUUUGUUAGUGGAGGCAGUGGUAGAGGCCGUCAUGUACGGUCCUUUACUCGAUAGAUGUGUUCU; value = 0.62 ratio
Oligonucleotide = CUUAAUGAUAUUUUGAGUGAAUAAAUGAAGCUAAAAUGUCUGCUUUUGGUACUACAUGCAUUAAUAAAAGGUUAAGUUUUGUUUUCCACUGAAGUACUAUUUAACAUCUCAGAAAAAAAC; value = 0.169 ratio
Oligonucleotide = UACUACUAUGAUGGUGAUAUUGGAAAUUAUUAUUAUGGCCAGGGUCAUCCCAUGAAGCCUCAUAGAAUCCGGAUGACUCAUAACUUGCUGCUAAAUUAUGGUUUAUACAGAAAAAUGGAA; value = 0.283 ratio
Oligonucleotide = UUAAUCCCCUUUACUGCUCCACCACUGCUCAUGGUAAUAACAAAGUCUUAUAUCCCCGUCCUAGCUUUCACUCAGAUGGCUUAUGGAGCCGGUUUCCUAGCUUUCUUGGGAGGGAUCAGA; value = 0.481 ratio
Oligonucleotide = AAAGUGGACUAUGGCGAGUACAUGGAUAAAAAUAAUGUGAGGCGGCAAGCAACAACAAUCAUAGCUGAUAACAUUAUAUUUCUGAGUGACCAGACAAAAGAGAAGGAAUAGAACGGAUGA; value = 1.45 ratio
Oligonucleotide = CGCUUGGAUGAGGCGGGUGUUACUGAUGAAGUGCUAGAUUCUGCCAUGCAAGCCUUCCUUCUGGAGGUCAUUGUUAAACAUGGGGAGCCAGCCCCUUAUUUAUGUAACAAAGAUCCGUUU; value = 0.0901 ratio
Oligonucleotide = GACUUUGGAACUGGUCCUCGUAAUGCAGCCUUCUAUAGCCCUCAUGGACAUAUAUUAGUGCUGGCUGGAUUUGGAAAUCUUCGAGGACAAAUGGAAGUAUGGGAUGUUAAAAACUACAAG; value = 0.308 ratio
Oligonucleotide = CUGUUUUGACAGCCACAAAUUCUUGGCAUGUAUUAAGGAAAAAAAAAAUCCCUGUUCAAGUAGUUUUUCCACCUAUCAGCACUGAGUAAAUGCCAUAACUCCGCGGAAAUGGUCUAAAUA; value = 0.226 ratio

Study 2
Target: Histone acetyltransferase KAT6A, winged helix 1, GST fusion (KAT6A, Homo sapiens, UniProt Q92794, residues 1-85)
Technique: protein binding microarray
Molecule type: double-stranded DNA, one strand shown
Matrix: in vitro
Tested at: not given
Setting: 8-mer, flanks averaged, mean of 2 arrays, mostly near background
Baseline: not given
Direction: higher = stronger binding
Endpoint: E-score
Target sequence (chain): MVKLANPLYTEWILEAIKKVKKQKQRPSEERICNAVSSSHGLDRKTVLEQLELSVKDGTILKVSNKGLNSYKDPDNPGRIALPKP
Oligonucleotide = ACTGCAGC; value = -0.0945
Oligonucleotide = CTCCGTGA; value = 0.154
Oligonucleotide = AACATGGC; value = -0.0554
Oligonucleotide = CTCTTCGC; value = -0.027
Oligonucleotide = ATATCGCG; value = 0.314
Oligonucleotide = GGAACCTA; value = 0.0632
Oligonucleotide = ACGTAACT; value = -0.00342
Oligonucleotide = CATAAAAA; value = -0.145
Oligonucleotide = CGTCCGGC; value = 0.367
Oligonucleotide = TCAGTCGA; value = -0.147
Oligonucleotide = GCTACATA; value = -0.0853
Oligonucleotide = CCCCATTC; value = -0.1
Oligonucleotide = CCTGAAGG; value = -0.0446
Oligonucleotide = AGTTATCC; value = -0.106
Oligonucleotide = AGGTAGAC; value = -0.094
Oligonucleotide = AGGCAGTA; value = -0.0886
Oligonucleotide = ACCTCTAG; value = -0.0512
Oligonucleotide = CCGCCTTC; value = 0.204
Oligonucleotide = TCTACGCA; value = -0.0102
Oligonucleotide = ATTCGGCA; value = 0.145
Oligonucleotide = ATCCGAAA; value = 0.0138
Oligonucleotide = GGTACGAA; value = -0.0226

Study 3
Target: Sal-like protein 4, full length isoform A (SALL4, Homo sapiens, UniProt Q9UJQ4, residues 1-1053)
Sequence of UniProt Q9UJQ4 (whole entry, looked up): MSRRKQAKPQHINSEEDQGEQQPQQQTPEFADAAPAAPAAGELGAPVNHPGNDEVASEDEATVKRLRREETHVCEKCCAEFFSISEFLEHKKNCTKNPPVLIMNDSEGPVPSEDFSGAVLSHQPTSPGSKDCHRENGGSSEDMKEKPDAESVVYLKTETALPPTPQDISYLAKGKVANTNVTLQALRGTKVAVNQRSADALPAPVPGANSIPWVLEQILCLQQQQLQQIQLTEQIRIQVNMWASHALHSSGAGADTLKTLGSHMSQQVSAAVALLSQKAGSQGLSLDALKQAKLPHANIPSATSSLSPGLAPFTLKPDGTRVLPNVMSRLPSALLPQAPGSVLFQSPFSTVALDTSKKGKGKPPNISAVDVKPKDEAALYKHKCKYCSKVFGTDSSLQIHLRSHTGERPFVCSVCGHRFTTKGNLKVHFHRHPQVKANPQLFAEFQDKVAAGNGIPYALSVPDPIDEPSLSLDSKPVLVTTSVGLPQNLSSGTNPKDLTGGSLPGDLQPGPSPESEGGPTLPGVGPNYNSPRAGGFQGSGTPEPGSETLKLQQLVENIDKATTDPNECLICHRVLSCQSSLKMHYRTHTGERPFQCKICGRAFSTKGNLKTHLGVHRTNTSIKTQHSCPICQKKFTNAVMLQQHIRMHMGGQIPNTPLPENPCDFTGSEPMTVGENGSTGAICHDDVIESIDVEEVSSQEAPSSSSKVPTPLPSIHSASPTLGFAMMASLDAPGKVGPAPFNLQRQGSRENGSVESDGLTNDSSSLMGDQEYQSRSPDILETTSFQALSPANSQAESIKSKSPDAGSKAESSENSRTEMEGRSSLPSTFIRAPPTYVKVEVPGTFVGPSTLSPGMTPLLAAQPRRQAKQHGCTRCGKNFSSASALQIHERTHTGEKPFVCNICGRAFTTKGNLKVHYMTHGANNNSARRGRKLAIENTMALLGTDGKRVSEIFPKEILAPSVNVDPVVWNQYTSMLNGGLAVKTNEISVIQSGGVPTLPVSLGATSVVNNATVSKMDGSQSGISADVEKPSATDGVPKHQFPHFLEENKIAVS
Technique: universal PBM
Molecule type: double-stranded DNA, one strand shown
Matrix: in vitro
Tested at: 600 nM
Setting: 8-mer, flanks averaged, mean of replicates
Direction: higher = stronger binding
Endpoint: E-score
Oligonucleotide = ACTCCCCA; value = 0.0602
Oligonucleotide = GGAATCAA; value = 0.00513
Oligonucleotide = CCGCCGCC; value = -0.421
Oligonucleotide = ATAAACGA; value = 0.36
Oligonucleotide = CACGCAGG; value = -0.0997
Oligonucleotide = GAATGGTC; value = -0.187
Oligonucleotide = ATGTAAAA; value = 0.323
Oligonucleotide = ACGAATCT; value = 0.0843
Oligonucleotide = GCGGGAAA; value = -0.0769
Oligonucleotide = AATCGTGA; value = 0.0729
Oligonucleotide = GATGTTAA; value = 0.141
Oligonucleotide = AGCGGACG; value = -0.286
Oligonucleotide = ACATAGTC; value = 0.173
Oligonucleotide = GTGGTCCA; value = -0.189
Oligonucleotide = CATTATGG; value = 0.153
Oligonucleotide = AAAACCGC; value = -0.153
Oligonucleotide = CCTGGACC; value = -0.229
Oligonucleotide = GTTCGTGA; value = -0.235
Oligonucleotide = GCACGAGC; value = -0.282
Oligonucleotide = CACAGCGC; value = -0.248
Oligonucleotide = ATTGTCAC; value = 0.169
Oligonucleotide = CAAGAGAG; value = 0.0709
Oligonucleotide = ATTTCGCC; value = 0.0305
Oligonucleotide = CCCCAGAC; value = -0.216
Oligonucleotide = AGCCATGG; value = -0.191

Study 4
Target: Ras GTPase-activating protein-binding protein 1, C-terminal RGG region (G3BP1, Homo sapiens, UniProt Q13283)
Sequence of UniProt Q13283 (whole entry, looked up): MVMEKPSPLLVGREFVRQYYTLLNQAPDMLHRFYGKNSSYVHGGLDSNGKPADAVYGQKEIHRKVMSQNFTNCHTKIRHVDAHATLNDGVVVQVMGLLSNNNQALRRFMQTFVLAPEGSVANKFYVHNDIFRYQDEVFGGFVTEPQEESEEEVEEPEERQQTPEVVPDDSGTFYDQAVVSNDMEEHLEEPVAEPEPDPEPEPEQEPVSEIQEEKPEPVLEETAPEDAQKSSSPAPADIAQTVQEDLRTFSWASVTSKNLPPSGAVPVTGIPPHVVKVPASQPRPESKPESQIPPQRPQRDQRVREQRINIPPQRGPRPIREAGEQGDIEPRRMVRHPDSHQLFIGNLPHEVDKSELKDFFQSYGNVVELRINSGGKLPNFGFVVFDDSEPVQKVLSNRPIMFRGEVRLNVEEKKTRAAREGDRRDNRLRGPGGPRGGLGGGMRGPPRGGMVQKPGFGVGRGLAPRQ
Technique: RNA Bind-n-Seq
Molecule type: RNA
Matrix: in vitro
Tested at: 1 µM
Setting: whole 134-nt RNA, ends assumed
Added: 150 mM KCl
Baseline: input library
Direction: higher = stronger binding
Endpoint: log2 enrichment
Constant ends, left off below: GGGAGUUCUACAGUCCGACGAUC … UGGAAUUCUCGGGUGUCAAGG
Oligonucleotide = GUCCUGUGCUACACAUCGUAUGUACCGAAUCGGGAAAAAAAGGGAAAAAGGGAAAGGGAAAGUAUUAUGUUACGCCGUUCGGAUCUGCAC; value = -0.169
Oligonucleotide = GCAGGAAGUAAAAACAAAUGGAAAUGCUUCGGAUAGUGGAAAGGGUGGGGGUUGCUAAGGAAAGGGUGGGAUGGGAGUGGGUAAAGAGUU; value = 1.95
Oligonucleotide = UUUGUAGAGCAGCCCGACGGCCAUGGAGGCUGAAGAGACGAUGGAAUGCCUUCAGGAGUUCCCUGAACAUCAUAAAAUGAUCCUCGACCG; value = -0.698
Oligonucleotide = ACCAUGCAGGUGGGCAUCUUUGGGAAGUGGGGCAAGGGGGGGAUAGGGAGGGGGGUAGCACUUUGGGAACAGGUGGUCCCAGGUCGUUUC; value = 2.31
Oligonucleotide = ACCAUGCAGGUGGGCAUCUUUGGGAAGUGGGGCAAGGGGGGGAUAGGGAGGGGGGUAACACUUUGGGAACAGGUGGUCUCAGGUCGUUUC; value = 1.63
Oligonucleotide = CAAGUCCUGUGCUACACAUCGUAUGUACCGAAUCGUGUGUGUGUGUGUGUGUGUGAAAGUAUUAUGUUACGCCGUUCGGAUCUGCACUUC; value = 1.18
Oligonucleotide = AGUCCUGUGCUACACAUCGUAUGUACCGAAUCGGGAAAAAGGGAGGGUUUUUUUGGGAAAGUAUUAUGUUACGCCGUUCGGAUCUGCACU; value = 0.974
Oligonucleotide = GCAGGAAGUAAAAACAAAUGGAAAUGCUUCGUAUAGUGGCAGGGGUGGGGGUUGCUAAGGAAAGGGUGGGAUGGGAGUGGGUAAAGAGUU; value = 1.61
Oligonucleotide = AGUCCUGUGCUACACAUCGUAUGUACCGAAUCGGGGAAAAAGGAAAAAGGGAAAAAGGAAAGUAUUAUGUUACGCCGUUCGGAUCUGCAC; value = -1.72
Oligonucleotide = UGCCGAUUCGGAAGUCCUUGAGGAGCGUCAGAAGCGGCUUCCCUACGUCCCAGAGCCCUAUUACCCGGAAUCUGGAUGGGACCGCCUCCG; value = -0.749
Oligonucleotide = UCUCCACCUGCUGAGCUCCCCAGUUUGAGGCGGAGCACACGCCAAAAGACCACGGGCUCCUGUGCUAGUACCAGGUAAUUUGUUUUUUUU; value = -0.534
Oligonucleotide = UCCUCAAGUCCUGUGCUACACAUCGUAUGUACCGAAUCGGGAGGAGGGAGGAAAGUAUUAUGUUACGCCGUUCGGAUCUGCACUUCCAGC; value = -1.1
Oligonucleotide = CAAGUCCUGUGCUACACAUCGUAUGUACCGAAUCGGGUGGGUUUGGGUUUUUGGGAAAGUAUUAUGUUACGCCGUUCGGAUCUGCACUUC; value = 1.22
Oligonucleotide = UCCUGUGCUACACAUCGUAUGUACCGAAUCGGGGCCCCCCGGCCCCCCGGGGCCCCCCGGAAAGUAUUAUGUUACGCCGUUCGGAUCUGC; value = -0.532

Study 5
Target: Interferon regulatory factor 7, full length, phosphomimetic (IRF7, Homo sapiens, UniProt Q92985, residues 1-503, S471D/S472D/S475D/S476D/S477D/S483D/S484D/S487D)
Sequence of UniProt Q92985 (whole entry, unmodified, looked up): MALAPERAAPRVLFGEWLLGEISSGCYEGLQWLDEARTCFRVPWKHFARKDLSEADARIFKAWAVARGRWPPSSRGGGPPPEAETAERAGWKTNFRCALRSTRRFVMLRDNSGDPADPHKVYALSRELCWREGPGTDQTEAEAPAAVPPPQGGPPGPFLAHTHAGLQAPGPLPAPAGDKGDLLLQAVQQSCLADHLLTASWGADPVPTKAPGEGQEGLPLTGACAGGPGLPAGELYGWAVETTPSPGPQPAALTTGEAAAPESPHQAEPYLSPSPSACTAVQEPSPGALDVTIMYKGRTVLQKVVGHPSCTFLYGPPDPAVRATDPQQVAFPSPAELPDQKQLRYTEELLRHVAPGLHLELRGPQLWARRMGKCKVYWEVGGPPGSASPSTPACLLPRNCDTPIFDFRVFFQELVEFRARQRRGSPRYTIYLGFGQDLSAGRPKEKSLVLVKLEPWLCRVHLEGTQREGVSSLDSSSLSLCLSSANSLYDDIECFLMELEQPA
Technique: protein-binding microarray
Molecule type: double-stranded DNA, one strand shown
Matrix: in vitro
Tested at: 2200 nM top
Setting: 60-bp whole probe
Added: salmon DNA 0.4 mg/ml
Baseline: random background probes
Direction: higher = stronger binding
Endpoint: fitted relative affinity
Constant ends, left off below: GCCTAGCAC … GTCTTGATTCGCTTGACGCTGCTG
Oligonucleotide = GACGGTTTCCTACTACTGACGTGCTAG; value = 2.2 z-score
Oligonucleotide = TTAGGACTGGGTCTCGGTTAGTGCTAG; value = -0.233 z-score
Oligonucleotide = GACGGTCTCGTACTGCTGACGTGCTAG; value = 0.271 z-score
Oligonucleotide = TTAGGACTGCTTCTCATTTAGTGCTAG; value = 0.603 z-score
Oligonucleotide = TTAGATATCGGGTTTCGATGAGTGCTA; value = 0.749 z-score
Oligonucleotide = GGCGGTATCCTTTTCCTGACGTGCTAG; value = 0.639 z-score
Oligonucleotide = TTAGGACTGGGGACTGGGTGAGTGCTA; value = -0.895 z-score
Oligonucleotide = TTAGGACTGGGGTTTCGCTTAGTGCTA; value = 1.4 z-score
Oligonucleotide = TTAGGTCTCGGTATCAGTTAGTGCTAG; value = 0.6 z-score
Oligonucleotide = TCAGTTTTTCATTTTTTACTGTGCTAG; value = 2.39 z-score
Oligonucleotide = TTAGGTTACGGTATCGGTTAGTGCTAG; value = 0.952 z-score
Oligonucleotide = GACGTTATCGGTCTCGGGACGTGCTAG; value = 0.529 z-score
Oligonucleotide = TCAGGTCTGGATGTGCCACTGTGCTAG; value = 0.0389 z-score
Oligonucleotide = GACGGTTTCGGCTCCGGGACGTGCTAG; value = 3.34 z-score
Oligonucleotide = TTTGCTTTCTTTTATGCTCTGTGCTAG; value = 2.75 z-score
Oligonucleotide = TCACCTTTCTCCATGGGACTGTGCTAG; value = 1.93 z-score
Oligonucleotide = GACGGACTGGATTATCGGGACGTGCTA; value = -0.684 z-score
Oligonucleotide = TTAGATTTCCTTATCCTTTAGTGCTAG; value = 1.55 z-score
Oligonucleotide = AGAGGCGGGAGGGGGCGGGGGTGCTAG; value = 0.952 z-score
Oligonucleotide = TCTCTGTTCTTTTCAGTCCCGTGCTAG; value = 2.76 z-score
Oligonucleotide = TTTCCCTAGAAGACGAAAGAGTGCTAG; value = 1.35 z-score
Oligonucleotide = TTTGATATCAGTTTCGATTAGTGCTAG; value = 6.19 z-score
Oligonucleotide = CCTGGCTCCATGGAATTTTTGTGCTAG; value = -0.266 z-score
Oligonucleotide = TTAGATATCAGTAACGATTAGTGCTAG; value = -0.353 z-score
Oligonucleotide = TTAGGACTGGTGTATCGGTTAGTGCTA; value = -0.201 z-score

Repeated from above (study 2):
Oligonucleotide = CCTGAAGG; value = -0.0446
Oligonucleotide = AGTTATCC; value = -0.106
Oligonucleotide = AGGTAGAC; value = -0.094
Oligonucleotide = AGGCAGTA; value = -0.0886
Oligonucleotide = ACCTCTAG; value = -0.0512
Oligonucleotide = CCGCCTTC; value = 0.204
Oligonucleotide = TCTACGCA; value = -0.0102
Oligonucleotide = ATTCGGCA; value = 0.145
Oligonucleotide = ATCCGAAA; value = 0.0138
